Experimental data from different studies.
± gives the spread as reported.
ALB: Albumin (ALB, Bos taurus, UniProt P02769)

CC(=O)N[C@@H](CC(=O)O)C(=O)N[C@H](C(=O)N[C@@H](CCCCN)C(=O)N[C@@H](CC(N)=O)C(=O)N[C@@H](CCN1C(=O)c2ccc(N(C)C)cc2C1=O)C(=O)N[C@@H](CCCCN)C(=O)N[C@@H](CCC(N)=O)C(=O)N[C@H](C(=O)N[C@@H](CO)C(=O)N[C@H](C(=O)O)C(C)C)[C@@H](C)O)[C@@H](C)O — relative fluorescence increase (Disks large homolog 4, PDZ3 domain (Homo sapiens, UniProt P78352); PDZ domain binding, fluorescence emission intensity; PSD-95 PDZ3 domain; 4-DMAP-Dab at position -5; reference: probe without PDZ domain): 48.8
CC(=O)N[C@H](CCCNC(=N)N)C(=O)N[C@@H](Cc1ccc(O)cc1)C(=O)N[C@@H](CCCNC(=N)NC(=O)NCCCCN)C(=O)N[C@@H](CC(C)C)C(=O)N[C@@H](CCCNC(=N)N)C(=O)N[C@@H](Cc1ccc(O)cc1)C(N)=O — intrinsic activity (NPY4R (Homo sapiens, UniProt P50391); β-arrestin-1 recruitment, agonist; HEK293T; concentration not given, unit not given; reference: 1 µM human pancreatic polypeptide): 0.45
C[n+]1cn(C2OC(COP(=O)(O)OP(=O)([O-])OP(=O)(O)OCC3OC(n4cnc5c(=O)[nH]c(N)nc54)C(O)C3O)C(O)C2O)c2nc(NCc3ccccc3)[nH]c(=O)c21 (stereo not shown) — reverse cap orientation (NUDT16 (Homo sapiens, UniProt Q96DE0); refers to: analog-capped RNA): ~30%
CCc1nc2cc3ccccc3cc2cc1C(=O)N1CCC[C@H]1C(=O)N[C@@H](C/C=C\C[C@H](NC(=O)[C@@H]1CCCN1C(=O)c1cc2cc3ccccc3cc2nc1CC)C(=O)N[C@@H](CCCCN)C(=O)NCCCN)C(=O)N[C@@H](CCCCN)C(=O)NCCCN — residence time ((CUG)4 RNA; SPR): 1650 s
CNc1ccccc1C(=O)O[C@H]1C[C@H](n2cnc3c(N)ncnc32)O[C@@H]1COP(=O)(O)OP(=O)(O)O — pocket reverse rate constant (Unconventional myosin-Va (Gallus gallus, UniProt Q02440, D297C/G292C/I296C/S293C/V295G); stopped-flow FRET; 4 °C, added: MgCl2 2 mM): 0.51 ± 0.34 s⁻¹
CC(=O)[O-].O.O.O.O.[Co+2].[O-]c1ccc(Br)cc1C=NCCN1CCOCC1 — hyperchromism (ALB; absorption titration; concentration not given, 25 °C): 65.6%
CNC(=O)C(NC(=O)C1CN(C(=O)c2cnn(Cc3ccccc3)c2)CC12CN(C(=O)C1CC1(C)C)C2)C(C)OCCC1CCCCC1 (stereo not shown) — tracer displacement (human cyclin E1 N112C:CDK2-NanoLuc; NanoBRET; HEK293T cell lysate; orthosteric site, added: tracer K-10 0.2 µM): no effect
COC(=O)c1cnc(-c2cnccn2)cc1C(=O)OC.COC(=O)c1cnc(-c2cnccn2)cc1C(=O)OC.F[P-](F)(F)(F)(F)F.[Ag+] — Stern-Volmer constant (ALB; fluorescence quenching; pH 7.4, BSA 5 µM): 541000 ± 11000 M⁻¹
O=C(O)CCC(NC(=O)NC(CCCCNC(=O)C(Cc1ccc2ccccc2c1)NC(=O)C1CCC(CNC(=S)Nc2ccc(CC(CN(CC(=O)O)C3CCCCC3N(CC(=O)O)CC(=O)O)N(CC(=O)O)CC(=O)O)cc2)CC1)C(=O)O)C(=O)O (stereo not shown) — internalized fraction (FOLH1 (Homo sapiens, UniProt Q04609); LNCaP; 30 nM, 45 min, 37 °C, 177Lu-labelled; reference: total cell-bound): 65.4 ± 5.7%
CC(=O)Nc1cccc(CNC(=O)c2cnc3ccccc3c2C(F)(F)F)c1 — histone acetyltransferase activity (KAT5 (Homo sapiens, UniProt Q92993); activator; 20 µM): increased
CCCCCCOc1ccc(C(=O)OCC[N+]2(C)CC=CCC2)cc1 (stereo not shown) — cooperativity factor (CHRM4 (Homo sapiens, UniProt P08173); antagonist, refers to: inositol phosphates; CHO co-expressing G15; added: carbachol): 0.0012 ± 0.0002
C=CCC(=N)NCCC[C@H](N)C(=O)O — Hill slope (Nitric oxide synthase 3 (Rattus norvegicus, UniProt Q62600); ACh-evoked cGMP accumulation; rat aortic rings): 1 ± 0.2
Cc1cccnc1C(=O)Nc1ccc(N2C(=O)c3ccc(Cl)cc3C2=O)c(Cl)c1 — Emax (GRM1 (Homo sapiens, UniProt Q13255); calcium signal, positive allosteric modulator; T-REx-293): 92%

Some of these lines once more:
CNC(=O)C(NC(=O)C1CN(C(=O)c2cnn(Cc3ccccc3)c2)CC12CN(C(=O)C1CC1(C)C)C2)C(C)OCCC1CCCCC1 (stereo not shown) — tracer displacement (human cyclin E1 N112C:CDK2-NanoLuc; NanoBRET; HEK293T cell lysate; orthosteric site, added: tracer K-10 0.2 µM): no effect
CC(=O)Nc1cccc(CNC(=O)c2cnc3ccccc3c2C(F)(F)F)c1 — histone acetyltransferase activity (KAT5 (Homo sapiens, UniProt Q92993); activator; 20 µM): increased
